Measured values pooled from the literature.
Protocols differ between the studies behind these lines. Several values in a cell are separate wells, animals, samples, runs or records. Numbers after ± are the reported error.
Tumor necrosis factor receptor superfamily member 9/Nectin-4: Tumor necrosis factor receptor superfamily member 9/Nectin-4 (Homo sapiens, UniProt Q07011+Q96NY8)
Chain of UniProt Q07011 (whole entry, looked up): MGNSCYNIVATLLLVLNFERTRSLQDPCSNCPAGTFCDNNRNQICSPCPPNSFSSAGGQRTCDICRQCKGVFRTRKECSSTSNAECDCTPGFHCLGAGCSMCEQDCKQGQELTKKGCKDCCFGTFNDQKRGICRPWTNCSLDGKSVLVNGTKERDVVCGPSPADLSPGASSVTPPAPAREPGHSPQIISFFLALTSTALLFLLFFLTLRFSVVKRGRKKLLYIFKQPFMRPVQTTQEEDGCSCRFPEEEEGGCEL
Chain of UniProt Q96NY8 (whole entry, looked up): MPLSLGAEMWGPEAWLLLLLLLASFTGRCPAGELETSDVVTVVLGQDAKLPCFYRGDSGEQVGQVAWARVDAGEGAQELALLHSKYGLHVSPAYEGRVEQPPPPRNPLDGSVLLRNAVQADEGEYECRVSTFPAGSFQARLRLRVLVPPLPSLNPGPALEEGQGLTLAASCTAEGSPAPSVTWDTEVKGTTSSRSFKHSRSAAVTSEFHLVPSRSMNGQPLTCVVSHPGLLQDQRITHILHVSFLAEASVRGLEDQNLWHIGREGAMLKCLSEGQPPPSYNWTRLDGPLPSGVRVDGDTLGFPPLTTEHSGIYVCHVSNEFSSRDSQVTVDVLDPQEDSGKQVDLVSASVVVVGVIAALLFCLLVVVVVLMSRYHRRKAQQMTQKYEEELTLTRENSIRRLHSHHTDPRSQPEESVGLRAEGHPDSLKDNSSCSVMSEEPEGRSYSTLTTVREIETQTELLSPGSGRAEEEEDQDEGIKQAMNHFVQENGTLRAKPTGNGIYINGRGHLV
HTR2B: 5-hydroxytryptamine receptor 2B (HTR2B, Homo sapiens, UniProt P41595)
Chain of UniProt P41595 (whole entry, looked up): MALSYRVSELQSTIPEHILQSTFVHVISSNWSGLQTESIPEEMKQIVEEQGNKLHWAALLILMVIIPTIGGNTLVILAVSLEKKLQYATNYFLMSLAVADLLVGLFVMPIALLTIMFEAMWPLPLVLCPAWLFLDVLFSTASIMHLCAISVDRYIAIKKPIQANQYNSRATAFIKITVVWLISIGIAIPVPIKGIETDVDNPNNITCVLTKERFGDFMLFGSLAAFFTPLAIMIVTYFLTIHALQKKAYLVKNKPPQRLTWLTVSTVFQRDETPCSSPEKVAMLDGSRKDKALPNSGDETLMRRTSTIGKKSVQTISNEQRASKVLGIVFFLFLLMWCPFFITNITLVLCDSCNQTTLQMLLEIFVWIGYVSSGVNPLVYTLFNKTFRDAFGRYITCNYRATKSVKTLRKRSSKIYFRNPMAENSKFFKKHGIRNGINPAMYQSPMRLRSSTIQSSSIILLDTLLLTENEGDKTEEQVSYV
T1: RNA, 2'-deoxy at 37-40 (Fusobacterium nucleatum); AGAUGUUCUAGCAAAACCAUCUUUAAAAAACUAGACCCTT
T2: ssDNA, aptamer; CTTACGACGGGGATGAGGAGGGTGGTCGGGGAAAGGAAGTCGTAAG
Chain of UniProt Q16774 (whole entry, unmodified, looked up): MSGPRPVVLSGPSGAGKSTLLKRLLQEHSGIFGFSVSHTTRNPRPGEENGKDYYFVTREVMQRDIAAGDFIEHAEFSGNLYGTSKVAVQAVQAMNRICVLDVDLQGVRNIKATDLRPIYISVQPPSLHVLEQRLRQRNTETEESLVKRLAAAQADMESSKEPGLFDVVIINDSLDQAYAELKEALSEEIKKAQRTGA
Chain of UniProt P51575 (whole entry, unmodified, looked up): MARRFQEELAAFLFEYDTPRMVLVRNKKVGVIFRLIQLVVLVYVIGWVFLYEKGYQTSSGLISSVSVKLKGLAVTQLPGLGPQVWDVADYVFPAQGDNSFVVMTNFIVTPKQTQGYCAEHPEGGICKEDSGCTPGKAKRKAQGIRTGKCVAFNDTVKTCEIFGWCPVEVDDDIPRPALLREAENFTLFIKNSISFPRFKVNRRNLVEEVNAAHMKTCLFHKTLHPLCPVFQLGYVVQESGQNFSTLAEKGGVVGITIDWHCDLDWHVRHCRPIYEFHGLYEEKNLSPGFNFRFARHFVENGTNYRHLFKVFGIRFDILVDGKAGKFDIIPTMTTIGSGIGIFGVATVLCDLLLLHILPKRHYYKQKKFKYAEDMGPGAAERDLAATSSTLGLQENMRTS
Chain of UniProt P11388 (whole entry, looked up): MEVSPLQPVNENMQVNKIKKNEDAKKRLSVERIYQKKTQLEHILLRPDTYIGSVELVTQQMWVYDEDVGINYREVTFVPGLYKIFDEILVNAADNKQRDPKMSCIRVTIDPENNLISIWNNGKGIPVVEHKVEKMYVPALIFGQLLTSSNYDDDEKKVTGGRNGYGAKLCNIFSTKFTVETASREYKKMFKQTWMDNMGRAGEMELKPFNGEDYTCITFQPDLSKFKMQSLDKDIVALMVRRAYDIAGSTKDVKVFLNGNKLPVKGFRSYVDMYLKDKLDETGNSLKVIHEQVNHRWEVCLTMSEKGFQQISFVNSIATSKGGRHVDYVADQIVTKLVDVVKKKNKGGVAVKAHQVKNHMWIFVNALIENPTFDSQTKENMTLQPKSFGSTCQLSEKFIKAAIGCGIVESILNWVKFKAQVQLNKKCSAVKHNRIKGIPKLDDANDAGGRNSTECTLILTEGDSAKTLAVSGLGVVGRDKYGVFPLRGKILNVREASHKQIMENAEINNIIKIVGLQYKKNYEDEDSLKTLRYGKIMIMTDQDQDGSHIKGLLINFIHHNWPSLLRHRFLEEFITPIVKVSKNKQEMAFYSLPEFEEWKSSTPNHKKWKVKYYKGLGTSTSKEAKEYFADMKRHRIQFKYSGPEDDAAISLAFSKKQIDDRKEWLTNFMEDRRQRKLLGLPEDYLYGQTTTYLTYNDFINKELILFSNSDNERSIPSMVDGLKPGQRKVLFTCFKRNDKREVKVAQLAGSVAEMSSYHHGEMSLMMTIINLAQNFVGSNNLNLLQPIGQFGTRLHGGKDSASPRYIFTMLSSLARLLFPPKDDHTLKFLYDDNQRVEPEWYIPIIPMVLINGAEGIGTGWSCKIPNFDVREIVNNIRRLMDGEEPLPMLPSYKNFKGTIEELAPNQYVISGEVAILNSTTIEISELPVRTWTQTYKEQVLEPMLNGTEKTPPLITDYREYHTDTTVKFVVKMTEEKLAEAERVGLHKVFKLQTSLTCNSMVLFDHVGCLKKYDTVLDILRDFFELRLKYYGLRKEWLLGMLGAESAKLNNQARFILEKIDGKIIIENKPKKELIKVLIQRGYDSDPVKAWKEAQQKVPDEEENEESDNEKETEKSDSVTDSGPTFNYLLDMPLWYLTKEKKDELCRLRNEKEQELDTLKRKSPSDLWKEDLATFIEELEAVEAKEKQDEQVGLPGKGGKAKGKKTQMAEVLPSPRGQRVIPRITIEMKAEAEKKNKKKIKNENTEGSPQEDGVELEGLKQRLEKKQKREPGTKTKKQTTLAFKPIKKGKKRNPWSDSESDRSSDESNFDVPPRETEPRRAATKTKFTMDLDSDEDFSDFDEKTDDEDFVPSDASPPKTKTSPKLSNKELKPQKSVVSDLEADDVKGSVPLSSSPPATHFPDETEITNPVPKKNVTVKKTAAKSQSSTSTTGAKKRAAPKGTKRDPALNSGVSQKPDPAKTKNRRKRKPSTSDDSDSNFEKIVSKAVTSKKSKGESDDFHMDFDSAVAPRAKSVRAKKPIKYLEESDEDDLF
Chain of UniProt P22736 (whole entry, looked up): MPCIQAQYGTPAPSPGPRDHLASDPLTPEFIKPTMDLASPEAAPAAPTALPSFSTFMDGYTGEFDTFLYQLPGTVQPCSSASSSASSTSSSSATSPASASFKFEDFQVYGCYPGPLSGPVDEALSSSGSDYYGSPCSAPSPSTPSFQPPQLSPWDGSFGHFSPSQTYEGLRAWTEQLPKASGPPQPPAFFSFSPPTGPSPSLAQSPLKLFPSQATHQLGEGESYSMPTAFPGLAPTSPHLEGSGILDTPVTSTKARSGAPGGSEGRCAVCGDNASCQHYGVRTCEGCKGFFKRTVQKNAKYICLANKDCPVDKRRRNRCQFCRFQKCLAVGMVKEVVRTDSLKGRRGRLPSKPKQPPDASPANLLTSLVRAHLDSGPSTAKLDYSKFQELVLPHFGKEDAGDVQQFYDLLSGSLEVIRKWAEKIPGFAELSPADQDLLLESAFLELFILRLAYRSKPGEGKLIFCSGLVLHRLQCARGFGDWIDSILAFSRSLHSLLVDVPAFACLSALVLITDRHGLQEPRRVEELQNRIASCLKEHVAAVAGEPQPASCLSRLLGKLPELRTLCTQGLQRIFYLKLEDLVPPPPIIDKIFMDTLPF
Chain of UniProt Q03181 (whole entry, looked up): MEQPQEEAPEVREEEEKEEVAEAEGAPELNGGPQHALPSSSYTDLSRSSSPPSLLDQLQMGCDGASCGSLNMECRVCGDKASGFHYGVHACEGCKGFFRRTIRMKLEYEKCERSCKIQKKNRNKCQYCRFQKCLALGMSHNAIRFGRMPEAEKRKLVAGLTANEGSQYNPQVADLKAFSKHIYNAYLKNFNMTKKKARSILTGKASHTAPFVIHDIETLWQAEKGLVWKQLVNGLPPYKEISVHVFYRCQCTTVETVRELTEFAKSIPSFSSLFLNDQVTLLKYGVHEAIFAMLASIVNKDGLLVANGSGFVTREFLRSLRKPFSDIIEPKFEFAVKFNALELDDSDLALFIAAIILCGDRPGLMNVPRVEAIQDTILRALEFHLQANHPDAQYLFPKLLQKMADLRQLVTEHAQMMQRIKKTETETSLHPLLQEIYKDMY
Chain of UniProt P30968 (whole entry, looked up): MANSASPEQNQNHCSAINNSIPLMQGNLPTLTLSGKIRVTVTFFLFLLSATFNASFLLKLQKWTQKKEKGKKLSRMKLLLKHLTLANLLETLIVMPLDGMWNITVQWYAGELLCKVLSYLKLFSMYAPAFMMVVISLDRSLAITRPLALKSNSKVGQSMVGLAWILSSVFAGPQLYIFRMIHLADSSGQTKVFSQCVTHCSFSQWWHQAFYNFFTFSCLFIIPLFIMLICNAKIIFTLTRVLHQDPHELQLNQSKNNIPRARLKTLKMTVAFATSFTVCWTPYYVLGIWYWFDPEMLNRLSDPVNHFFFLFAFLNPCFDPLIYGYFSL

SMILES = C[C@H](CCC(C)(C)O)[C@H]1CC[C@H]2[C@@H]3CC=C4C[C@@](C)(O)CC[C@]4(C)[C@H]3CC[C@]12C; target = Glutamate NMDA receptor; GRIN1/GRIN2B (GRIN1/GRIN2B, Homo sapiens, UniProt Q05586+Q13224, L655Y); assay = positive allosteric modulator, two-electrode voltage clamp; test system = Xenopus oocytes expressing GluN1-L655Y; conditions = 10 µM, 0.02% cremophor, added: 100 µM glutamate and glycine; scale = relative to: without compound; measurement = current response; value = 160 ± 4.6%
SMILES = COc1cc(F)ccc1-c1ncnc(Nc2cccc(C[S@](C)(=N)=O)c2)n1; target = EEF2K (Homo sapiens, UniProt O00418); assay = kinase activity; conditions = 10 µM, added: 10 µM ATP; measurement = remaining activity; value = 102%
SMILES = O=C1NC(=O)/C(=C/c2ccc(OCCNc3nc4c(cnn4C4CCCC4)c(=O)[nH]3)c(F)c2)S1; target = PDE7A (Homo sapiens, UniProt Q13946); scale = relative to: PDE7A over PDE9; measurement = selectivity ratio; value = 25 fold
SMILES = CCCC[C@@H]1NC(=O)[C@H](Cc2ccc(O)cc2)NC(=O)[C@@H]2CCCN2C(=O)[C@H](CC(N)=O)NC(=O)[C@H](C)NC(=O)[C@H](Cc2ccccc2)NC(=O)[C@@H]2CSCCC(=O)N3CN(CN(C3)C(=O)CCSC[C@H](NC(C)=O)C(=O)N[C@@H](CC(C)(C)C)C(=O)N3CCC[C@H]3C(=O)N[C@@H](CCC(=O)O)C(=O)N[C@H](CCCCNC(=O)CCc3cn(CCOCCOCCOCCOCCOCCC(=O)N[C@H]4CSCCC(=O)N5CN6CN(C5)C(=O)CCSC[C@H](NC(=O)[C@@H](CC(=O)O)NC(=O)[C@H](Cc5cccc7ccccc57)NC(=O)[C@@H]5CCCN5C4=O)C(=O)N[C@@H](CCSC)C(=O)N[C@@H](CCCCNC(=N)N)C(=O)N[C@@H](CC(=O)O)C(=O)N[C@@H](Cc4c[nH]c5ccccc45)C(=O)N[C@@H](CO)C(=O)N[C@@H]([C@@H](C)O)C(=O)N4CCC[C@H]4C(=O)N4C[C@H](O)C[C@H]4C(=O)N[C@@H](Cc4c[nH]c5ccccc45)C(=O)N[C@H](C(N)=O)CSCCC6=O)nn3)C(=O)N3CCC[C@H]3C(=O)N[C@@H](Cc3ccc(O)cc3)C(=O)N2)C(=O)CCSC[C@@H](C(N)=O)NC1=O; target = Tumor necrosis factor receptor superfamily member 9/Nectin-4; assay = reporter gene, agonist; test system = HT-1376 coculture with reporter cells; scale = relative to: background; measurement = Emax; value = 5.1 fold
SMILES = OC[C@H]1OC(O)[C@H](O)[C@@H](O)[C@@H]1O (stereo partly shown); target = Hexokinase-3 (HK3, Homo sapiens, UniProt P52790, D264A/R265A); assay = substrate inhibition; conditions = mutant D264A/R265A, partial substrate inhibition model, added: ATP 20 mM; measurement = V∞/Vmax ratio (b); value = 0.52 ± 0.01
SMILES = CN1CCN(c2cc(-c3ccncc3)c(-c3ccc4ccccc4c3)nn2)CC1; target = GNRHR (Homo sapiens, UniProt P30968); assay = agonist, FLIPR; conditions = 12.5 µM; measurement = activation; value = -0.6%
SMILES = O=C(O)[C@@H]1CCCN1c1ncnc2[nH]cnc12 (racemic); target = ATP-dependent RNA helicase DDX1 (Homo sapiens, UniProt Q92499); assay = binding, affinity selection mass spectrometry; scale = relative to: other proteins in batch; measurement = fold enrichment; value = 1.17
SMILES = O=c1nc(SCc2cc(F)cc(C(F)(F)F)c2)nc(SCc2ccc3sccc3c2)[nH]1; target = TOP2A (Homo sapiens, UniProt P11388); assay = ATPase activity; conditions = 1.95 µM, added: ATP 0.1 mM; measurement = ATP hydrolysis rate; value = 1.2 µM/min and 1.37 µM/min
SMILES = O=C(O)CCCc1cc2cc(Cl)ccc2n1S(=O)(=O)c1ccc2ncsc2c1; target = PPARD (Homo sapiens, UniProt Q03181); assay = reporter gene, agonist, luciferase reporter; scale = relative to: maximal control activation; measurement = Emax; value = 53%
SMILES = Nc1nc2c(ncn2[C@@H]2O[C@H](COP(=O)(O)O)[C@@H](O)[C@H]2O)c(=O)[nH]1; target = GUK1 (Homo sapiens, UniProt Q16774, Y53A); assay = enzyme activity, NADH-coupled; conditions = 62.5 µM; measurement = reaction rate; value = -1.11 s⁻¹ and -1.43 s⁻¹ and -0.974 s⁻¹
SMILES = CCCCCCCCOC(=O)NS(=O)(=O)Nc1ccc(-c2cc3ccccc3[nH]2)cc1OC; target = Polyunsaturated fatty acid lipoxygenase ALOX15 (Oryctolagus cuniculus, UniProt P12530); conditions = 30 µM, added: linoleic acid; measurement = kcat; value = 4.07 ± 0.61 s⁻¹
SMILES = Oc1ccccc1-c1n[nH]cc1-c1ccnc2ccccc12; target = Mitosis inhibitor protein kinase SWE1 (SWE1, Candida albicans, UniProt Q5AP97); assay = kinase binding, MIB/MS competition; test system = Candida albicans lysate; conditions = 1 µM; scale = relative to: DMSO, negative = stronger binding; measurement = log2 fold change; value = 0.05
SMILES = Nc1ccn([C@@H]2O[C@H](COP(=O)(O)OP(=O)(O)OP(=O)(O)O)[C@@H](O)[C@H]2O)c(=O)n1; target = DNA-directed RNA polymerase subunit beta' / DNA-directed RNA polymerase subunit beta (rpoC/rpoB, Escherichia coli, UniProt P0A8T7+P0A8V2); assay = RNA extension, rapid quench-flow; test system = Escherichia coli, elongation complex, 6-MI template; conditions = 200 µM, 25 °C, slow complex fraction; measurement = nucleotide addition rate; value = 1.5 ± 0.3 s⁻¹
SMILES = CC[C@@H]1[C@H](F)C(=O)N[C@@H]1COc1nccc2cc(C(N)=O)c(OC)cc12; target = PRPF4B (Homo sapiens, UniProt Q13523); assay = ATP-site probe binding, ActivX profiling; test system = THP-1 cell lysate; conditions = 0.04 mM, Lys2 site; measurement = inhibition; value = 4.1%
SMILES = CC(=O)N[C@H](C(=O)N1C[C@H](O)C[C@H]1C(=O)NCc1ccc(-c2scnc2C)cc1)C(C)(C)SCCCCCCNC(=O)C[C@@H]1N=C(c2ccc(Cl)cc2)c2c(sc(C)c2C)-n2c(C)nnc21; target = Bromodomain-containing protein 4, BD2 (BRD4, Homo sapiens, UniProt O60885); assay = PROTAC, ITC; conditions = concentration not given, 25 °C; measurement = binding stoichiometry; value = 0.69 ± 0.02
SMILES = Clc1ccc(C(c2c[nH]c3ccccc23)c2c[nH]c3ccccc23)cc1; target = Nuclear receptor subfamily 4 group A member 1 (NR4A1, Homo sapiens, UniProt P22736); assay = reporter gene, NBRE reporter full-length; conditions = 10 µM; scale = relative to: vehicle; measurement = activation; value = 1.39 fold
SMILES = CC(C)[C@H](NC(=O)c1cc(-c2cnn3cc(-c4ccc(OCCN5CCCCC5)cc4)cnc23)cs1)C(F)(F)F; target = ROCK2 (human); assay = radiometric kinase; conditions = 15 nM; scale = relative to: ROCK2 over ULK1; measurement = relative inhibition; value = 0
SMILES = Nc1ncnc2c1ncn2[C@@H]1O[C@H](COP(=O)(O)CP(=O)(O)OP(=O)(O)O)[C@@H](O)[C@H]1O; target = P2X purinoceptor 1 (P2RX1, Homo sapiens, UniProt P51575, E282A); assay = calcium influx; conditions = 1 µM; scale = relative to: ionomycin response; measurement = calcium influx; value = 94.9% and 72.7% and 78%
SMILES = Nc1nc2[nH]cnc2c(=O)[nH]1; target = T1, RNA, 2'-deoxy at 37-40 (Fusobacterium nucleatum); assay = MST; conditions = apparent; measurement = Kd; value = 12 µM
SMILES = N#C[C@@]12C[C@@H]1[C@@H](n1cnc3c(N[C@H](C4CCC4)C4CC4)nc(I)nc31)[C@H](O)[C@@H]2O; target = HTR2B; assay = antagonist, calcium flux; conditions = added: 5-HT; scale = relative to: 5-HT2C over 5-HT2B; measurement = selectivity ratio; value = 4.1 fold
SMILES = O=C1c2ccccc2CCN1CCCCN1CCN(c2cccc(Cl)c2Cl)CC1; target = HTR2B; assay = radioligand binding; conditions = concentration not given, added: [3H]LSD; measurement = inhibition; value = 95.3%
SMILES = NCCCC(=O)O; target = SLC6A6 (Homo sapiens, UniProt P31641, Y138A); assay = binding, microscale thermophoresis; conditions = 250 µM, room temperature, added: 50 nM labelled protein; scale = higher = more binding; measurement = normalised MST signal; value = -0.0169
SMILES = CCCC[C@@H]1NC(=O)[C@H](Cc2ccc(O)cc2)NC(=O)[C@@H]2CCCN2C(=O)[C@H](CC(=O)O)NC(=O)[C@H](C)NC(=O)[C@H](Cc2ccccc2)NC(=O)[C@@H]2CSCCC(=O)N3CN(CN(C3)C(=O)CCSC[C@@H](C(=O)N[C@@H](CNC(=O)CCc3cn(CCOCCOCCOCCOCCOCCOCCOCCOCCOCCOCCOCCOCCC(=O)NCCC(=O)N(C)CC(=O)N(C)CC(=O)N(C)CC(=O)N(C)CC(=O)N(C)CC(=O)N(C)CC(=O)N(C)CC(=O)N(C)CC(=O)N(C)CC(=O)N(C)CC(=O)NCCCC[C@@H]4NC(=O)[C@H](Cc5cccc6ccccc56)NC(=O)[C@@H]5CCCN5C(=O)[C@@H](NC(C)=O)CSCCC(=O)N5CN6CN(C5)C(=O)CCSC[C@H](NC4=O)C(=O)N[C@@H](CCSC)C(=O)N[C@@H](CCCCNC(=N)N)C(=O)N[C@@H](CC(=O)O)C(=O)N[C@@H](Cc4c[nH]c5ccccc45)C(=O)N[C@@H](CO)C(=O)N[C@@H]([C@@H](C)O)C(=O)N4CCC[C@H]4C(=O)N4C[C@H](O)C[C@H]4C(=O)N[C@@H](Cc4c[nH]c5ccccc45)C(=O)N[C@H](C(N)=O)CSCCC6=O)nn3)C(N)=O)NC1=O)C(=O)CCSC[C@H](NC(C)=O)C(=O)N[C@@H](CC(C)(C)C)C(=O)N1CCC[C@H]1C(=O)N[C@@H](CCC(=O)O)C(=O)N[C@H](C)C(=O)N1CCC[C@H]1C(=O)N[C@@H](Cc1ccc(O)cc1)C(=O)N2; target = Tumor necrosis factor receptor superfamily member 9/Nectin-4; assay = reporter gene, agonist; test system = HT-1376 coculture with reporter cells; scale = relative to: background; measurement = Emax; value = 39 fold
SMILES = Nc1ncnc2c1ncn2[C@@H]1O[C@H](COP(=O)(O)OP(=O)(O)O)[C@@H](O)[C@H]1O; target = T2, ssDNA, aptamer; assay = ITC; measurement = Kd; value = 53.4 µM
SMILES = Cl.[2H]C([2H])([2H])CC(=O)c1cnc(NC(=O)C2CC2)cc1Nc1cccc(-c2ncn(C([2H])([2H])[2H])n2)c1OC; target = TYK2 (Homo sapiens, UniProt P29597); assay = IFNα-induced STAT1 phosphorylation, flow cytometry; test system = human, whole blood T cells; conditions = above 10 mg once daily, added: IFN-alpha; measurement = time to maximal inhibition; value = 2 to 4 h
SMILES = CCn1c(-c2nc3cc(C(=O)N4CCC[C@@H](N)C4)cc(OC)c3n2C)cc2cccnc21; target = PADI1 (Homo sapiens, UniProt Q9ULC6); assay = enzyme activity, mixed inhibitor; conditions = added: BAEE, 10 mM CaCl2; measurement = Ki'; value = 3530 ± 1900 µM
SMILES = CNc1ncc2c(/C=C/C(=O)N3CCC(OC)CC3)nn(Cc3cccc(C(F)(F)F)c3)c2n1; target = FLT4 (Homo sapiens, UniProt P35916); assay = kinase activity, inhibitor; conditions = 1 µM; scale = relative to: untreated control; measurement = remaining activity; value = 98%
SMILES = CCNC(=O)/C=C/c1cccc(Br)c1; target = SLC6A19 (Homo sapiens, UniProt Q695T7); assay = inhibitor, L-[14C]leucine uptake; test system = CHO-BC cells; conditions = 0.3 µM, 6 min, unit not given, added: GPNA 3 mM, JPH203 3 µM; scale = relative to: uninhibited cells; measurement = remaining transport activity; value = 0.738

Repeated from above:
SMILES = CC(C)[C@H](NC(=O)c1cc(-c2cnn3cc(-c4ccc(OCCN5CCCCC5)cc4)cnc23)cs1)C(F)(F)F; target = ROCK2 (human); assay = radiometric kinase; conditions = 15 nM; scale = relative to: ROCK2 over ULK1; measurement = relative inhibition; value = 0
SMILES = C[C@H](CCC(C)(C)O)[C@H]1CC[C@H]2[C@@H]3CC=C4C[C@@](C)(O)CC[C@]4(C)[C@H]3CC[C@]12C; target = Glutamate NMDA receptor; GRIN1/GRIN2B (GRIN1/GRIN2B, Homo sapiens, UniProt Q05586+Q13224, L655Y); assay = positive allosteric modulator, two-electrode voltage clamp; test system = Xenopus oocytes expressing GluN1-L655Y; conditions = 10 µM, 0.02% cremophor, added: 100 µM glutamate and glycine; scale = relative to: without compound; measurement = current response; value = 160 ± 4.6%
SMILES = N#C[C@@]12C[C@@H]1[C@@H](n1cnc3c(N[C@H](C4CCC4)C4CC4)nc(I)nc31)[C@H](O)[C@@H]2O; target = HTR2B; assay = antagonist, calcium flux; conditions = added: 5-HT; scale = relative to: 5-HT2C over 5-HT2B; measurement = selectivity ratio; value = 4.1 fold
